Measurements of several laboratories.
Every numbered part comes from another study and shows a few of its results, in no order.

Sample 1
Target: Prothrombin, mature alpha-thrombin (F2, Homo sapiens, UniProt P00734)
Technique: aptamer microarray, sandwich
Form: DNA with 2'F-ANA
Sample: in vitro
Concentration: 200 nM
Setting: whole 15-mer aptamer, many near background
With: Cy3 exosite-II aptamer, 400 nM
Direction: higher = stronger binding
Strand: GGTTGGTGTGGTTGG
Modification | mean fluorescence intensity [a.u.]
2'F-ANA at 1 2 4 5 7 8 11 12 13 | 79.6
2'F-ANA at 1 3 4 6 8 10 12 13 | 64.9
2'F-ANA at 1 3 4 11 12 13 15 | 261
2'F-ANA at 1 2 3 5 6 7 10 11 13 15 | 50.9
2'F-ANA at 2 3 4 5 8 10 12 | 93.9
2'F-ANA at 1 3 4 6 10 11 12 13 | 65.1
2'F-ANA at 3 4 5 6 7 10 12 | 54.2
2'F-ANA at 5 8 9 12 14 15 | 47.7

Sample 2
Target: Centromere-binding protein 1, full length, N-terminal tag (CBF1, Saccharomyces cerevisiae, UniProt P17106, residues 1-351)
Chain of UniProt P17106 (whole entry, looked up): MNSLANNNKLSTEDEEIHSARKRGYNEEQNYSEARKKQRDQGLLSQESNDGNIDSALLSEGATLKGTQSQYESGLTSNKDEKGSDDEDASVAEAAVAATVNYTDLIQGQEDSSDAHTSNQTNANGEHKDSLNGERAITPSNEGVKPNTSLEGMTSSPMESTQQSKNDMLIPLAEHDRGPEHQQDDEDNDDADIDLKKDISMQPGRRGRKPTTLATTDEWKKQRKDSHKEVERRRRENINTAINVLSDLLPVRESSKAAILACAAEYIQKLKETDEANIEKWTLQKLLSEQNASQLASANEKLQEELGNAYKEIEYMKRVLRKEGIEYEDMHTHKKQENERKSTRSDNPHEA
Technique: protein-binding microarray
Form: double-stranded DNA, one strand shown
Sample: in vitro
Concentration: 0.8 µM
Setting: whole 60-bp probe, no competitor
Direction: higher = stronger binding
All sequences stand within: … GTCTTGATTCGCTTGACGCTGCTG
Strand | fluorescence intensity
GAAATACTCCCCCCGCGCACGTCAATAGATCCTTAG | 523 a.u.
CTATTTATGGCTTTCCATGTGGTTAAAGAAAAATTC | 614 a.u.
GAAATAACCCTGAGCCACATGTGGTAGATGCCGTAG | 561 a.u.
CTATTTTTCGCATTGTGCACGGAAGGCTTCACCTTC | 515 a.u.
GAACCCATTAACTCAAACGTGTATATAAATTGATAG | 650 a.u.
CCTAACTACTATAAACGCACGCAATAGCTTCGTACA | 522 a.u.
GAAAGGGGAATAGGTCACATGAAACGACGACAATAG | 2160 a.u.
TGTACGAAGCTATGGAACGTGTGTATAGTAGTTAGG | 530 a.u.

Further values, each from its own experiment
Substance | tested on | test | test system | setting | scale | measurement | result
Cc1nnc2n1-c1sc(CCC(=O)N3CCOCC3)cc1C(c1ccccc1Cl)=NC2 | mouse MPNST tumor cells | high-content immunofluorescence imaging, measured: nuclear SOX9 |  | 10 µM, 12 h, mean of 2 replicates | reference: DMSO control, higher = more nuclear SOX9 | nuclear SOX9 intensity | 96.9 % of DMSO
FRRVAHSSL | HLA class I histocompatibility antigen, A alpha chain, allele A*80:01 (Homo sapiens, UniProt P04439) | peptide-MHC binding | peptide |  | direction not given | z-score of log IC50 | 0.38

Repeated from above (sample 1):
Modification | mean fluorescence intensity [a.u.]
2'F-ANA at 1 3 4 6 8 10 12 13 | 64.9
2'F-ANA at 1 2 3 5 6 7 10 11 13 15 | 50.9
